Measured values pooled from the literature.
Protocols differ between the studies behind these lines. Values joined by “and” are separate records of one study, mostly repeats; a detail may differ. Numbers after ± are the reported error.
ACE2: Angiotensin-converting enzyme 2 (ACE2, Homo sapiens, UniProt Q9BYF1)
UniProt Q9BYF1, sequence (whole entry, looked up): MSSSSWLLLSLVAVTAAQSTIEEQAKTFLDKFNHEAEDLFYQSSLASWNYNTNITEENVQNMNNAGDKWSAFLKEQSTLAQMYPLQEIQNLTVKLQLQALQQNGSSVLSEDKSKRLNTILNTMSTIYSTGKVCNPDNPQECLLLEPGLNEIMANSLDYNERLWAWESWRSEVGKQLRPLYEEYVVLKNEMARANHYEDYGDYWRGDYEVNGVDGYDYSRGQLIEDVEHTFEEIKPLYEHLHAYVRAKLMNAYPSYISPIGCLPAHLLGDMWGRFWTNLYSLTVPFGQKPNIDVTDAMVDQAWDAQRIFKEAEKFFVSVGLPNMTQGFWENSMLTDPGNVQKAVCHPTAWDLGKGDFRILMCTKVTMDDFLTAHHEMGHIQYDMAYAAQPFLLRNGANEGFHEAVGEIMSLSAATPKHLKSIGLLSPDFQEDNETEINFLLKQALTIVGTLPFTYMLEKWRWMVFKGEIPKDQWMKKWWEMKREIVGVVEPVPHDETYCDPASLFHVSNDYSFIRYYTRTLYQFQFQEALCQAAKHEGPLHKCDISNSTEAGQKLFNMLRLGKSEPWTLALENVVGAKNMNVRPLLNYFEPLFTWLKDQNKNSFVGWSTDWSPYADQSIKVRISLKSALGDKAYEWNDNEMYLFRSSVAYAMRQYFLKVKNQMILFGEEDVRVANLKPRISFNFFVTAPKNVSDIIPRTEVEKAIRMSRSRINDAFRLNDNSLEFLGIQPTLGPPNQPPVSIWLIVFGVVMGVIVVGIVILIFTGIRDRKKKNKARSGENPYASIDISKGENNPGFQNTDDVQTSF
Cytochrome P450 2A13: Cytochrome P450 2A13 (Homo sapiens, UniProt Q16696)
UniProt Q16696, sequence (whole entry, looked up): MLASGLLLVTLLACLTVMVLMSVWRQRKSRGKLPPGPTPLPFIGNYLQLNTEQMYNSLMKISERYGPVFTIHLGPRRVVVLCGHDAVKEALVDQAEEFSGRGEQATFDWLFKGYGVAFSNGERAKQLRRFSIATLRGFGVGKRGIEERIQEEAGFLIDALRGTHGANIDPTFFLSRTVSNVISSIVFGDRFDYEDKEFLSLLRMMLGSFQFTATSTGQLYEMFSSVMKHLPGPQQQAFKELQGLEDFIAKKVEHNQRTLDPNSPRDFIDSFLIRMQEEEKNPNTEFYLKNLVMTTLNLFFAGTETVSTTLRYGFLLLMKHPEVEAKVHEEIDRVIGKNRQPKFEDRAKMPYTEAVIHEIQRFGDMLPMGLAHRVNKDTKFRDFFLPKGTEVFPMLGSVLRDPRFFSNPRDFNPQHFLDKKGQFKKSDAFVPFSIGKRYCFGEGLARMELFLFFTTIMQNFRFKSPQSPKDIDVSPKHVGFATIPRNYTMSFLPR
UniProt O88703, sequence (whole entry, looked up): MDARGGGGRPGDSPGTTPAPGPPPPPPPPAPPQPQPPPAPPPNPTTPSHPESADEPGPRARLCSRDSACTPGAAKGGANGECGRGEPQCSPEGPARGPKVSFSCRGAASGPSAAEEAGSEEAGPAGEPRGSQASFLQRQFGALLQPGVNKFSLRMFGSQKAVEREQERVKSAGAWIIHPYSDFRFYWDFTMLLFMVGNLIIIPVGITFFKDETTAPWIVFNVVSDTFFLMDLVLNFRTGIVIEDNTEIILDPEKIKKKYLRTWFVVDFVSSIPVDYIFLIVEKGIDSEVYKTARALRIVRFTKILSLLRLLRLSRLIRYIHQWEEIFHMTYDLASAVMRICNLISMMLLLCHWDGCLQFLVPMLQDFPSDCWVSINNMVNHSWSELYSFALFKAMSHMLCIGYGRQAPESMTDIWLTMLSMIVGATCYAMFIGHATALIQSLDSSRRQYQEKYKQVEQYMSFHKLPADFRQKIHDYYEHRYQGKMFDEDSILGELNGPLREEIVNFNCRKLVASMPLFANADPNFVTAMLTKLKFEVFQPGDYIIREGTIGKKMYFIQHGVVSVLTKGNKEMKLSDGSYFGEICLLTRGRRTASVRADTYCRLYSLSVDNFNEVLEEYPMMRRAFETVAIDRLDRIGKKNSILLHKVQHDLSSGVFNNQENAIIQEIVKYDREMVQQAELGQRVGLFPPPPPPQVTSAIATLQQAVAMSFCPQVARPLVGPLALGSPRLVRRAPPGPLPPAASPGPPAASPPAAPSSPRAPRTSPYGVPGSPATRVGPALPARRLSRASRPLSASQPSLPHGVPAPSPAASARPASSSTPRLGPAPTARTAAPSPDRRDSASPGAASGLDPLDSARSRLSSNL
UniProt Q26239, sequence (whole entry, unmodified, looked up): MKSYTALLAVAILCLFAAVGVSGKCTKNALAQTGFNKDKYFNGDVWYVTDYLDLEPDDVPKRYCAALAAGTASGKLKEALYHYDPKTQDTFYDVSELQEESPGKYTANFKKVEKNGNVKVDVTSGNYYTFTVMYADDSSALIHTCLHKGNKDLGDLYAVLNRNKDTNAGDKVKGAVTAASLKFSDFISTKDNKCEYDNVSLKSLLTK
UniProt P83410, sequence (whole entry, looked up): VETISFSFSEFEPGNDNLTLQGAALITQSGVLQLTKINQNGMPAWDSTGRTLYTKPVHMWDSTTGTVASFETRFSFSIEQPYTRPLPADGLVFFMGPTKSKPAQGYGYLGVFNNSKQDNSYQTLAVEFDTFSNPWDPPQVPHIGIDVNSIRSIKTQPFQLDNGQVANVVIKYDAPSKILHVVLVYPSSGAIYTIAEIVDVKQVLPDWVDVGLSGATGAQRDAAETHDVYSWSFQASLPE
UniProt P02692, sequence (whole entry, looked up): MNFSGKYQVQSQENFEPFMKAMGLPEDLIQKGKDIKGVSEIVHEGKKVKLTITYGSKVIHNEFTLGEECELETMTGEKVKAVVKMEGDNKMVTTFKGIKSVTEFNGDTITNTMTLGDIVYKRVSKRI
UniProt P29476, sequence (whole entry, looked up): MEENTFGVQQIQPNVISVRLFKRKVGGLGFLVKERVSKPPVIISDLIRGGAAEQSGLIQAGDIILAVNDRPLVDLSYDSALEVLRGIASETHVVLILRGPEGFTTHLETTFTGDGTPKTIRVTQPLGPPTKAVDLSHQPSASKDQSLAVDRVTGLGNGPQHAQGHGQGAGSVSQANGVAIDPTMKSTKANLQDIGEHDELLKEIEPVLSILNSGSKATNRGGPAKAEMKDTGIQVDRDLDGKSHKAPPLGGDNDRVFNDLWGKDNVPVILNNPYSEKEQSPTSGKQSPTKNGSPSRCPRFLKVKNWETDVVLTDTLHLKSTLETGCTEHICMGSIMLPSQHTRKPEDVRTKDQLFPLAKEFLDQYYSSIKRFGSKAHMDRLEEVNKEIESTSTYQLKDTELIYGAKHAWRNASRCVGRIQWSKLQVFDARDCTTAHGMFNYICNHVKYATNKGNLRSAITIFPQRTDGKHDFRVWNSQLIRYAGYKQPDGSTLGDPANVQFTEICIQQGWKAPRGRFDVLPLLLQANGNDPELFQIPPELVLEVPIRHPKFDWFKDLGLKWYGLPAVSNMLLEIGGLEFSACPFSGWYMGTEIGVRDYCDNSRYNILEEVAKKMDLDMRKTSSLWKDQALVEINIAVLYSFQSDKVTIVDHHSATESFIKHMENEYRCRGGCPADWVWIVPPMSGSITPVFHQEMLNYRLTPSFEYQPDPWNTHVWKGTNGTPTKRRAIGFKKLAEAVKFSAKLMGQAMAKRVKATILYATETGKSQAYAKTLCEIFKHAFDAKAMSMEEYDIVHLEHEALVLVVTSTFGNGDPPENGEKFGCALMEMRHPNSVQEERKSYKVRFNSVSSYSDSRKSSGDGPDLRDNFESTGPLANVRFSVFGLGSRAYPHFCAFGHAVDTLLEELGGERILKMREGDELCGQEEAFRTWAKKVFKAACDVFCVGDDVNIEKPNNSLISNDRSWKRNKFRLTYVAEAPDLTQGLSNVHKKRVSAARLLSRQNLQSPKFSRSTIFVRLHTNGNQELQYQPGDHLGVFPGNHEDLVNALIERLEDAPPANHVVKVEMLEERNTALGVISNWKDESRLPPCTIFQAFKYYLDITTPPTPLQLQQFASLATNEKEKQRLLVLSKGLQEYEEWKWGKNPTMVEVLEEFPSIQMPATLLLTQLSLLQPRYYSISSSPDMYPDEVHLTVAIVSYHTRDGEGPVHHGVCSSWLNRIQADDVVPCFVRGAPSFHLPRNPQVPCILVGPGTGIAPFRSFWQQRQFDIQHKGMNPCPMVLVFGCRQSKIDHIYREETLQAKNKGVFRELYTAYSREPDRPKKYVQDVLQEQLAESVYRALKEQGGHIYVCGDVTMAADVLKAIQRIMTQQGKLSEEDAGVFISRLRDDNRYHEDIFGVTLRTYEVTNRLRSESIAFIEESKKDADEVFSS
UniProt Q14145, sequence (whole entry, looked up): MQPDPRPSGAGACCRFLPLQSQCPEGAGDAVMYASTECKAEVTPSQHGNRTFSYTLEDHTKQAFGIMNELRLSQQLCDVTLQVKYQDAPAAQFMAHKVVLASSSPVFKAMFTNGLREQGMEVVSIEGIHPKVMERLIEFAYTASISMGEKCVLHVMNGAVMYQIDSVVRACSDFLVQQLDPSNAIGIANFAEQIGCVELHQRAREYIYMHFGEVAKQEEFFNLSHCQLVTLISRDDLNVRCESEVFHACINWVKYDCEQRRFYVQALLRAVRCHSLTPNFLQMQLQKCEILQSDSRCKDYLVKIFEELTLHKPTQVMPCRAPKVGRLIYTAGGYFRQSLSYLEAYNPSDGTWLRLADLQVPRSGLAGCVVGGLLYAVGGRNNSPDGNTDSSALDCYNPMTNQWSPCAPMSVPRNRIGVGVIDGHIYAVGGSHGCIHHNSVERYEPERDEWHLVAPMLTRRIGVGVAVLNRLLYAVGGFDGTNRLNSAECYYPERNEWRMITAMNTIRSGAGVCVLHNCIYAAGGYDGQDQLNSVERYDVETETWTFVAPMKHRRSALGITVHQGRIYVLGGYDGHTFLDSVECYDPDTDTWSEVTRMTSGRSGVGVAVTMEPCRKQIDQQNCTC
UniProt P62577, sequence (whole entry, looked up): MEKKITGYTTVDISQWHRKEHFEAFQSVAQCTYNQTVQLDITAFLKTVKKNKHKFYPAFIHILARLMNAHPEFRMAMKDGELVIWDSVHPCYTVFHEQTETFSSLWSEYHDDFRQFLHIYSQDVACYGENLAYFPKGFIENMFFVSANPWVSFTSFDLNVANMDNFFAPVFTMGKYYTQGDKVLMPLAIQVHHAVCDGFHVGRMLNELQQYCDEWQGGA

CC(=O)N[C@H](CCCNC(=N)N)C(=O)N[C@H](C)C(=O)N[C@H](CC(=O)O)C(=O)N[C@H](C)C(=O)N[C@H](CCCNC(=N)N)C(=O)N[C@H](C)C(=O)N[C@H](CC(=O)O)C(=O)N[C@H](C)C(=O)N[C@H](CCCNC(=N)N)C(=O)N[C@H](C)C(=O)N[C@H](CC(=O)O)C(=O)N[C@H](C)C(=O)N[C@H](CCCNC(=N)N)C(=O)N[C@H](C)C(=O)N[C@H](CC(=O)O)C(=O)N[C@H](C)C(N)=O
Kd (trypsin; fluorescence polarization; 30 min, pH 7.0, together with: FITC-labelled peptide): ~0.342 µM

CC(C)C[C@H](N[C@@H](Cc1cncn1Cc1cc(Cl)cc(Cl)c1)C(=O)O)C(=O)O
Kd (ACE2; binding, SPR): 0.029 µM

C[C@@H]1O[C@@H](O[C@H]2[C@H](O[C@H]3[C@H](O)[C@@H](O)C(O)O[C@@H]3CO)O[C@H](CO)[C@H](O)[C@@H]2O)[C@@H](O)[C@H](O)[C@@H]1O (some centres unmarked)
Kd (Lectin (Erythrina crista-galli, UniProt P83410); BLI competition; solution Kd, together with: LacNAc-biotin biosensor): 220 µM

CC[N+](CC)(CC)CC(=O)Nc1c(C)cccc1C
Kd (sodium channel (rat brain), batrachotoxin-modified; open channel block, blocker, planar lipid bilayer, single channel; high-Kd period, +60 mV): 12000 µM

CC[C@H](C)[C@H](NC(=O)[C@H](CCCCN)NC(=O)[C@@H](NC(=O)[C@@H](NC(=O)[C@H](CO)NC(=O)[C@H](CC(N)=O)NC(=O)[C@@H](NC(=O)[C@H](CC(N)=O)NC(=O)[C@H](CCCCN)NC(C)=O)C(C)C)[C@@H](C)CC)C(C)C)C(=O)N[C@@H](CCC(N)=O)C(=O)N[C@@H](C)C(=O)N[C@@H](Cc1ccccc1)C(=O)N[C@@H](Cc1ccccc1)C(=O)N[C@@H](CCCNC(=N)N)C(=O)N[C@@H](C)C(=O)N[C@@H](CCCNC(=N)N)C(=O)N[C@@H](CCCCN)C(=O)N[C@@H](C)C(=O)N[C@@H](CCC(N)=O)C(=O)N[C@@H](CC(=O)O)C(=O)N[C@@H](CC(=O)O)C(=O)N[C@@H](Cc1ccc(O)cc1)C(=O)N[C@@H](CCCNC(=N)N)C(N)=O
Kd (Calmodulin-1 (CALM1, Homo sapiens, UniProt P0DP23); binding, native gel titration; 1 h, 22 °C, together with: Ca2+, calmodulin 35 µM): 65 ± 12 µM

CC1(C)[C@@H](O[C@H]2O[C@H](C(=O)O)[C@@H](O)[C@H](O)[C@H]2O[C@@H]2O[C@H](C(=O)O)[C@@H](O)[C@H](O)[C@H]2O)CC[C@]2(C)[C@H]3C(=O)C=C4[C@@H]5C[C@@](C)(C(=O)O)CC[C@]5(C)CC[C@@]4(C)[C@]3(C)CC[C@@H]12
Kd (ACE2; binding, SPR): 4.39 µM

c1c[nH]cn1
Kd (Nitric oxide synthase 1, heme domain (Nos1, Rattus norvegicus, UniProt P29476); heme binding, difference spectroscopy; pH 7.5): 120 ± 20 µM

CCCCCCCC[N+](CCO)(CCO)CCO
Kd (potassium channel; steady-state block; Doryteuthis pealeii; internal application, together with: membrane potential +100 mV): 1110 µM

CN[C@@](C)(C[18F])C(=O)O
tracer uptake (A549 tumour model; host not given, blood; 15 min, tumour-bearing): 3.2 %ID/g

O=C(N[C@H](CO)[C@H](O)c1ccc([N+](=O)[O-])cc1)C(Cl)Cl
Kd (Chloramphenicol acetyltransferase (cat, Escherichia coli, UniProt P62577); ligand, native ESI-MS; third ligand binding, gas phase, together with: 200 mM ammonium acetate): 130 ± 40 µM

C#Cc1ccc2ccc3ccccc3c2c1
Kd (Cytochrome P450 2A13; binding, absorbance; pH 7.4): 0.45 µM

CCCCCCCCCCCCCCCC(=O)N[C@@H](CCC(N)=O)C(=O)O
Kd (Bifunctional cytochrome P450/NADPH--P450 reductase, heme domain (cyp102A1, Bacillus megaterium, UniProt P14779); substrate binding, substrate, UV-vis spectral titration; pH 7.4, room temperature, wild-type heme domain): 0.2 ± 0.014 µM

CC[C@H](C)[C@H](NC(=O)[C@H](CC(=O)O)NC(=O)[C@H](CO)NC(=O)[C@@H]1CCCN1C(=O)[C@H](Cc1ccc(O)cc1)NC(=O)[C@H](Cc1ccccc1)NC(=O)CNC(=O)[C@H](CCCCN)NC(=O)[C@@H](NC(=O)[C@H](CC(C)C)NC(=O)[C@H](CS)NC(=O)[C@@H](NC(=O)[C@@H](N)CC(C)C)[C@@H](C)O)C(C)C)C(=O)O
Kd (Ficolin-3 (FCN3, Homo sapiens, UniProt O75636); SPR; GlcNAc-BSA chip): ~1 µM

CC[C@H](C)[C@H](NC(=O)[C@@H]1CCCN1C(=O)[C@H](CC(C)C)NC(=O)[C@H](Cc1ccccc1)NC(=O)[C@H](CCC(=O)O)NC(=O)CNC(=O)[C@@H](NC(=O)[C@H](CCC(=O)O)NC(=O)[C@H](CCC(=O)O)NC(=O)[C@H](CC(=O)O)NC(=O)[C@H](CC(C)C)NC(=O)[C@H](CCC(N)=O)NC(=O)[C@H](CC(C)C)NC(=O)[C@H](CCC(N)=O)NC(=O)[C@H](C)NC(=O)[C@H](Cc1ccccc1)NC(C)=O)[C@@H](C)O)C(=O)N[C@@H](CCC(N)=O)C(=O)N1CCC[C@H]1C(=O)N[C@@H](C)C(=O)N[C@@H](CCC(N)=O)C(N)=O
Kd (Kelch-like ECH-associated protein 1 (KEAP1, Homo sapiens, UniProt Q14145); binding, ITC; pH 7): 0.023 µM

Nc1ncnc2c1ncn2[C@@H]1O[C@H](COP(=O)(O)OP(=O)(O)OP(=O)(O)O)[C@@H](O)[C@H]1O
Kd (matB (Rhodopseudomonas palustris, UniProt Q6ND88, C106A/K488A/Q457C/R286C); binding, fluorescence titration; pH 7.0, 20 °C): 6.4 ± 0.6 µM

C#Cc1ccc2c(ccc3ccccc32)c1
Kd (Cytochrome P450 2A13; binding, absorbance; pH 7.4): 1.1 µM

CCCCn1ccnc1
Kd (Nitrophorin-1 (Rhodnius prolixus, UniProt Q26239, H82C); binding, UV/Vis titration; pH 7.4, 25 °C, H60C mutant complex): 7 ± 1e-06 µM

COC(=O)[C@H]1C(c2ccc(I)cc2)C[C@@H]2CC[C@H]1N2C (some centres unmarked)
Kd (Sodium-dependent dopamine transporter (SLC6A3, Homo sapiens, UniProt Q01959); binding, radioligand saturation binding; HEK293 hDAT membranes; 90 min): 0.00148 ± 0.00023 µM

CSCC[C@H](NC(=O)[C@H](CC(C)C)NC(=O)[C@H](Cc1ccccc1)NC(=O)[C@H](CC(=O)O)NC(=O)[C@H](Cc1ccc(O)cc1)NC(=O)[C@H](Cc1c[nH]c2ccccc12)NC(=O)[C@@H](NC(=O)[C@@H](NC(=O)[C@H](CCCNC(=N)N)NC(=O)[C@@H](N)CO)C(C)C)[C@@H](C)O)C(=O)N[C@@H](CCC(=O)O)C(=O)N[C@@H](CC(=O)O)C(=O)N[C@H](C(=O)N[C@@H](CCCCN)C(=O)N[C@@H](CO)C(=O)N[C@@H](CCCNC(=N)N)C(=O)O)[C@@H](C)O
Kd (GNAS, GDP-bound (Homo sapiens, UniProt P63092); microscale thermophoresis): no binding

cGMP
Kd (Potassium/sodium hyperpolarization-activated cyclic nucleotide-gated channel 2, C-terminal region (Hcn2, Mus musculus, UniProt O88703); binding, isothermal titration calorimetry; 25 °C, C-linker/CNBD tetramer, high-affinity event): 0.36 µM and ~0.36 µM

CCCCCCCC[N+](CC)(CC)CC
Kd (potassium channel; steady-state block; Doryteuthis pealeii; internal application, together with: membrane potential +100 mV): 7.3 µM

CSCC[C@H](NC(=O)[C@H](CO)NC(=O)[C@@H](NC(=O)[C@H](CCC(N)=O)NC(=O)[C@H](CCCCN)NC(=O)[C@H](CCCCN)NC(=O)[C@H](CCCCN)NC(=O)[C@H](CCCCN)NC(C)=O)[C@@H](C)O)C(=O)N[C@H](C(=O)N[C@@H](CC(=O)O)C(=O)N[C@@H](Cc1ccccc1)C(=O)N[C@@H](Cc1ccc(O)cc1)C(=O)N[C@@H](Cc1c[nH]cn1)C(=O)N[C@@H](CO)C(=O)N[C@@H](CCCCN)C(=O)N[C@@H](CCCCN)C(=O)N[C@@H](CCCCN)C(N)=O)[C@@H](C)O
Kd (Proliferating cell nuclear antigen (PCNA, Homo sapiens, UniProt P12004); binding, ITC; pH 7.4): 0.087 µM

CC/C=C/C=C\C=C/C=C/CCCCCCCC(=O)SCCNC(=O)CCNC(=O)[C@H](O)C(C)(C)COP(=O)(O)OP(=O)(O)OC[C@H]1O[C@@H](n2cnc3c(N)ncnc32)[C@H](O)[C@@H]1OP(=O)(O)O (relative stereo)
Kd (Fatty acid-binding protein, liver (Rattus norvegicus, UniProt P02692); binding, fluorescence binding): 0.228 ± 0.018 µM

C=CC1=C(C)c2cc3[nH]c(cc4nc(cc5[nH]c(cc1n2)c(C)c5C=C)C(C)=C4CCC(=O)O)c(CCC(=O)O)c3C.[Fe+3]
Kd (Heme-binding lipoprotein HupD (Listeria monocytogenes, UniProt Q8Y4K7); binding, Trp fluorescence quenching; His tag removed): 0.026 ± 0.005 µM

CCCCCCCCCC[N+](CCO)(CCO)CCO
Kd (potassium channel; steady-state block; Doryteuthis pealeii; internal application, together with: membrane potential +100 mV): 132 µM

CC(=O)N[C@@H](CC(C)C)C(=O)N1CCC[C@H]1C(=O)N[C@H]1CCCCNC(=O)c2cc3cc(c2)NC(=O)CSC[C@H](NC(=O)[C@H](CO)NC(=O)[C@H](C(C)C)NC(=O)[C@H](Cc2c[nH]c4ccccc24)NC(=O)[C@H](CO)NC(=O)[C@H]([C@@H](C)O)NC(=O)[C@H](CC(C)C)NC(=O)CNC(=O)[C@H]([C@@H](C)O)NC1=O)C(=O)N[C@@H](Cc1c[nH]cn1)C(=O)N[C@@H](Cc1ccccc1)C(=O)N[C@@H](CC(C)C)C(=O)N[C@@H](CCCNC(=N)N)C(=O)N[C@@H](CO)C(=O)N[C@@H](CC(C)C)C(=O)N[C@H](C(=O)NCC(=O)NCC(=O)N[C@@H](CO)C(=O)NCC(N)=O)CSCC(=O)N3
Kd (Transcriptional enhancer factor TEF-3 (TEAD4, Homo sapiens, UniProt Q15561); binding, FP): 0.0639 µM

Some of these lines once more:
C=CC1=C(C)c2cc3[nH]c(cc4nc(cc5[nH]c(cc1n2)c(C)c5C=C)C(C)=C4CCC(=O)O)c(CCC(=O)O)c3C.[Fe+3]
Kd (Heme-binding lipoprotein HupD (Listeria monocytogenes, UniProt Q8Y4K7); binding, Trp fluorescence quenching; His tag removed): 0.026 ± 0.005 µM

CCCCCCCCCC[N+](CCO)(CCO)CCO
Kd (potassium channel; steady-state block; Doryteuthis pealeii; internal application, together with: membrane potential +100 mV): 132 µM

CC(=O)N[C@@H](CC(C)C)C(=O)N1CCC[C@H]1C(=O)N[C@H]1CCCCNC(=O)c2cc3cc(c2)NC(=O)CSC[C@H](NC(=O)[C@H](CO)NC(=O)[C@H](C(C)C)NC(=O)[C@H](Cc2c[nH]c4ccccc24)NC(=O)[C@H](CO)NC(=O)[C@H]([C@@H](C)O)NC(=O)[C@H](CC(C)C)NC(=O)CNC(=O)[C@H]([C@@H](C)O)NC1=O)C(=O)N[C@@H](Cc1c[nH]cn1)C(=O)N[C@@H](Cc1ccccc1)C(=O)N[C@@H](CC(C)C)C(=O)N[C@@H](CCCNC(=N)N)C(=O)N[C@@H](CO)C(=O)N[C@@H](CC(C)C)C(=O)N[C@H](C(=O)NCC(=O)NCC(=O)N[C@@H](CO)C(=O)NCC(N)=O)CSCC(=O)N3
Kd (Transcriptional enhancer factor TEF-3 (TEAD4, Homo sapiens, UniProt Q15561); binding, FP): 0.0639 µM
